# Measurements collected from several papers.
# Every numbered part comes from another study and shows a few of its results, in no order.

# Sample 1
# Target: Fragile X messenger ribonucleoprotein 1, C-terminal low-complexity region (Fmr1, Mus musculus, UniProt P35922)
# Technique: RNA Bind-n-Seq
# Molecule type: RNA
# Matrix: in vitro
# Tested at: 200 nM
# Notes: whole 134-nt RNA, ends assumed
# Added: 150 mM KCl
# Baseline: input library
# Reading: higher = stronger binding
# Shared flanks, not repeated: GGGAGUUCUACAGUCCGACGAUC … UGGAAUUCUCGGGUGUCAAGG
Oligonucleotide,log2 enrichment
AGUCCUGUGCUACACAUCGUAUGUACCGAAUCGGGGAAAAAGGGGUGGGGUUUGGGGAAAGUAUUAUGUUACGCCGUUCGGAUCUGCACU,0.651
UAACUUUAGAGGAGGAUCUGAUGGAUAUGGCAGUGGACGUGGAUUUGGGGAUGGCUAUAAUGGGUAUGGAGGAGUACCUGGAGGUGGCAA,0.131
ACCAUGCAGGUGGGCAUCUUUGGUAAGUGGGGCAAGGGGGGGAUAGGGAGGGGGGUAACACUUUGGGAACAGGUGGUCCCAGGUCGUUUC,0.776
GCAGGAAGUAAAAACAAAUGGAAAUGCUUCGGAUAGUGCCAGGGGUGGGGGUUGCUAAGGAAAGGGUGGGAUGGGAGUGGGUAAAGAGUU,0.443
AAGUCCUGUGCUACACAUCGUAUGUACCGAAUCGGAAAAGGGGAAAAGGAAAAGGGAAAGUAUUAUGUUACGCCGUUCGGAUCUGCACUU,-0.606
AAGUCCUGUGCUACACAUCGUAUGUACCGAAUCGGGGAGGGGAGGGGAAAAAGGGGAAAGUAUUAUGUUACGCCGUUCGGAUCUGCACUU,0.862
CCUCAAGUCCUGUGCUACACAUCGUAUGUACCGAAUCGGGGUGGGGUGGUGGGAAAGUAUUAUGUUACGCCGUUCGGAUCUGCACUUCCA,1.22
CUCAAGUCCUGUGCUACACAUCGUAUGUACCGAAUCGGAGGUUUGGUUUUUGGAAAGUAUUAUGUUACGCCGUUCGGAUCUGCACUUCCA,-0.288
CUCAAGUCCUGUGCUACACAUCGUAUGUACCGAAUCGGGAAGGGAAGGGGAAGGAAAGUAUUAUGUUACGCCGUUCGGAUCUGCACUUCC,-0.0143
UCCUGUGCUACACAUCGUAUGUACCGAAUCGGGAAAAAGGGUUUUUUUGGGUUUUUGGGAAAGUAUUAUGUUACGCCGUUCGGAUCUGCA,-0.328

# Sample 2
# Target: Histone acetyltransferase KAT6A, winged helix 1, GST fusion (KAT6A, Homo sapiens, UniProt Q92794, residues 1-85)
# Technique: protein binding microarray
# Molecule type: double-stranded DNA, one strand shown
# Matrix: in vitro
# Tested at: not given
# Notes: 8-mer, flanks averaged, mean of 2 arrays, mostly near background
# Baseline: not given
# Reading: higher = stronger binding
# Construct (chain): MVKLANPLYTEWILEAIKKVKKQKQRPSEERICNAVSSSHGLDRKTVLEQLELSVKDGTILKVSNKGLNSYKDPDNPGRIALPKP
Oligonucleotide,E-score
CACTTACG,0.033
CCCTTAAA,-0.173
AGGGCCCT,-0.0979
ACGCCTGA,-0.169
AAAGGCAA,-0.184
AGCATCAA,-0.183
ATCCACAG,-0.111
ACGTCAAC,-0.0739
CACATCCG,0.0752
TGACAGCA,-0.109
GAGCAATA,-0.195
CATAAGAA,-0.188
GATCCCTA,-0.0792
CTTTTTGC,-0.0312
ATACTGTC,-0.123
AGATTACT,-0.181
CCAGCACA,-0.256
CAAAAAGG,-0.0668
CTCGAACC,-0.0738
ATCACCAA,-0.13
ATCCGTCA,0.0575
CCGGCTCA,0.0534
CAGTATCG,0.0479
CATTTACG,0.0705

# Sample 3
# Target: Prothrombin, mature alpha-thrombin (F2, Homo sapiens, UniProt P00734)
# Technique: aptamer microarray, sandwich
# Molecule type: DNA with 2'F-ANA
# Matrix: in vitro
# Tested at: 200 nM
# Notes: whole 15-mer aptamer, many near background
# Added: Cy3 exosite-II aptamer, 400 nM
# Reading: higher = stronger binding
# Oligonucleotide: GGTTGGTGTGGTTGG
Modification,mean fluorescence intensity
2'F-ANA at 1 2 4 7 9,207 a.u.
2'F-ANA at 3 4 5 6 7 9 10 11 14 15,48.5 a.u.
2'F-ANA at 2 5 6 7 9 12 13 15,115 a.u.
2'F-ANA at 1 3 9 13 14,73.6 a.u.
2'F-ANA at 3 4 7 11 12 14 15,433 a.u.
2'F-ANA at 2 4 5 6 8 9 11 13 14 15,46.1 a.u.
2'F-ANA at 7 9 12 13,672 a.u.
2'F-ANA at 2 3 5 6 10 11 13 14 15,54.7 a.u.
2'F-ANA at 3 5 7 8 9 10 11 14 15,69.8 a.u.
2'F-ANA at 1 2 4 11 14 15,54.6 a.u.
2'F-ANA at 1 2 7 8 9 10 11 14 15,57 a.u.
2'F-ANA at 2 3 4 5 6 7 9 10 11 14,49 a.u.
2'F-ANA at 1 4 5 10 12,44.5 a.u.
2'F-ANA at 4 5 6 7,66.1 a.u.
2'F-ANA at 1 3 4 5 8 10 12 13,44.3 a.u.
2'F-ANA at 3 5 6,217 a.u.
2'F-ANA at 1 2 4 5 6 7 9 15,60.9 a.u.
2'F-ANA at 1 2 3 5 9 11 12 13,78.4 a.u.
2'F-ANA at 2 3 5 6 7 8 10 12 13 14 15,66.3 a.u.
2'F-ANA at 2 5 6 8 10 11 12 14,46.5 a.u.
2'F-ANA at 2 8 9 10 11 13 14,80.9 a.u.
2'F-ANA at 1 2 7 9 11 15,136 a.u.
2'F-ANA at 2 9 12 13 14 15,210 a.u.

# Sample 4
# Target: PABPC1L2, full length, GST fusion (mouse, UniProt A0ABA7IW68)
# Technique: RNAcompete
# Molecule type: RNA
# Matrix: in vitro
# Tested at: 20 nM
# Notes: 7-mer, probes averaged, single round
# Baseline: mean of 7-mers
# Reading: higher = stronger binding
Oligonucleotide,7-mer Z-score
UAUUAAU,-0.304
AGCUCGA,-0.289
CGAUAUG,-0.0464
AGGUAUA,0.0714
UUGGAUU,-0.0935
GCAUCCG,-0.0863
AAAAGUU,4.84
CCACUCC,-0.385
CGGGCCG,-0.103
CAGAUCG,-0.021
GUUUUAA,-0.219
AUAAUGA,0.0406
GUGGCCG,-0.0609
CGACAUG,-0.121
CGUGAGU,-0.371
GUGCUGU,-0.13
ACAACCA,0.374
CACAUCU,-0.295
CACACCG,-0.269
AACCGUU,-0.0772
UCGGUCG,-0.313
AAGUAAA,1.14
GCCCUUG,-0.325
UACUUCC,-0.258
GAUACAA,0.367
